# Results collected from several papers.
# Protocols differ between the studies behind these lines. ± gives the spread as reported.
SMILES,assay,test system,conditions,measurement,result
CC(=O)NCCCC[C@@H]1NC(=O)[C@H](Cc2c[nH]c3c(C)cccc23)NC(=O)[C@H]([C@@H](C)O)NC(=O)[C@H](CC(N)=O)NC(=O)[C@@H](NC(C)=O)C(C)(C)SSC(C)(C)[C@@H](C(=O)N[C@@H](Cc2ccc(OCCN)cc2)C(=O)N[C@@H](Cc2ccc3ccccc3c2)C(=O)NC2(C(=O)N[C@@H](CCC(=O)O)C(=O)N[C@@H](CC(N)=O)C(=O)N[C@@H](Cc3cccnc3)C(=O)N(C)CC(N)=O)CCOCC2)NC1=O,equilibrium dialysis,"cynomolgus monkey, plasma",0.1 µM,plasma protein binding,43.7 ± 1.1%
CC(C)[C@H](NC(=O)[C@@H](NC(=O)[C@H](CCCNC(=N)N)NC(=O)[C@H](CCCNC(=N)N)NC(=O)[C@H](CCCNC(=N)N)NC(=O)[C@H](CCC(N)=O)NC(=O)[C@H](CCCNC(=N)N)NC(=O)[C@H](CCCNC(=N)N)NC(=O)[C@H](CCCCN)NC(=O)[C@H](CCCCN)NC(=O)[C@H](CCCNC(=N)N)NC(=O)CN)[C@@H](C)O)C(=O)N[C@H](C(=O)N[C@@H](CO)C(=O)N1CCC[C@H]1C(=O)O)[C@@H](C)O,,"ICR mouse, male, right kidney","intranasal, 10 mg/kg daily, 4 weeks",kidney weight,0.299 ± 0.027 g
CSCC[C@H](NC(=O)CNC(=O)[C@H](CCCCN)NC(=O)[C@H](CC(C)C)NC(=O)[C@@H]1CCCN1C(=O)[C@H](CO)NC(=O)[C@H](Cc1c[nH]cn1)NC(=O)[C@H](Cc1c[nH]c2ccccc12)NC(=O)[C@H](CCCNC(=N)N)NC(=O)[C@H](CC(C)C)NC(=O)[C@H](CCCNC(=N)N)NC(=O)[C@H](Cc1c[nH]c2ccccc12)NC(=O)[C@H](CS)NC(=O)CCCCCNC(=O)CN1CCN(CC(=O)O)CCN(CC(=O)O)CCN(CC(=O)O)CC1)C(=O)O [copper-64 labelled],PET imaging,"C57BL/6J mice bearing B16-F10 tumours, tumour","intravenous, 25 h",tissue uptake,1.93 ± 0.15 %ID/g
COc1cccc2c1C(=O)c1c(O)c3c(c(O)c1C2=O)CC(O)(C(=O)CO)CC3OC1CC(NC(=O)OC2C=CCCC(C)(C(=O)NCC(=O)O)CC2)C(O)C(C)O1 (stereo not shown),,"female C57BL/6 mouse, plasma","intravenous, 43 mg/kg doxorubicin equivalents, 19 day",concentration,1330 ng/mL
CCCCCCCCCCCCCCCC(=O)N[C@@H](CCC(=O)NCCOCCOCCC(=O)NCCOCCOCCC(=O)NCCCC[C@H](NC(=O)[C@H](CC(=O)O)NC(=O)[C@H](CC(C)C)NC(=O)[C@H](Cc1ccc(O)cc1)NC(=O)[C@H](CCCCN)NC(=O)[C@H](CO)NC(=O)[C@H](Cc1ccc(O)cc1)NC(=O)[C@H](CC(=O)O)NC(=O)[C@H](CO)NC(=O)[C@@H](NC(=O)[C@H](Cc1ccccc1)NC(=O)[C@@H](NC(=O)CNC(=O)[C@H](CCC(N)=O)NC(=O)[C@@H](CO)NC(=O)[C@@H](N)Cc1c[nH]cn1)[C@@H](C)O)[C@@H](C)O)C(=O)N[C@@H](CCCNC(=N)N)C(=O)N[C@@H](CCCNC(=N)N)C(=O)N[C@@H](C)C(=O)N[C@@H](CCC(N)=O)C(=O)N[C@@H](CC(=O)O)C(=O)N[C@@H](Cc1ccccc1)C(=O)N[C@H](C(=O)N[C@@H](CCC(N)=O)C(=O)N[C@@H](Cc1c[nH]c2ccccc12)C(=O)N[C@@H](CC(C)C)C(=O)N[C@@H](CC(C)C)C(=O)N[C@@H](CC(N)=O)C(=O)N[C@H](C(=O)NCC(=O)NCC(=O)N1CCC[C@H]1C(=O)N[C@@H](CO)C(=O)N[C@@H](CO)C(=O)NCC(=O)N[C@@H](C)C(=O)N1CCC[C@H]1C(=O)N1CCC[C@H]1C(=O)N1CCC[C@H]1C(=O)N[C@@H](CO)C(N)=O)[C@@H](C)O)C(C)C)C(=O)O,,"rhesus monkey, male","subcutaneous, 20 µg/kg once daily, 28 days",urea,5.82 ± 0.82 mmol/L
CC[C@H](C)[C@H](NC(=O)CNC(=O)[C@H](CCSC)NC(=O)[C@H](CCC(N)=O)NC(=O)[C@H](C)NC(=O)[C@H](CCC(N)=O)NC(=O)[C@@H](NC(=O)[C@H](CC(C)C)NC(=O)[C@H](C)NC(=O)[C@H](CO)NC(=O)[C@H](CCSC)NC(=O)[C@H](CCC(=O)O)NC(=O)[C@H](CC(C)C)NC(=O)[C@H](Cc1ccc(O)cc1)NC(=O)[C@H](CO)NC(=O)[C@H](CCC(=O)O)NC(=O)[C@H](CCC(N)=O)NC(=O)[C@H](CCCNC(=N)N)NC(=O)[C@H](CCCCN)NC(=O)[C@H](CC(=O)O)NC(=O)[C@H](CC(C)C)NC(=O)[C@H](CC(N)=O)NC(=O)[C@H](Cc1ccccc1)NC(=O)[C@H](CCC(=O)O)NC(=O)[C@H](CCCCN)NC(=O)[C@@H](NC(=O)[C@H](CC(C)C)NC(=O)[C@H](CCC(=O)O)NC(=O)[C@H](CCC(=O)O)NC(=O)[C@@H](NC(=O)[C@@H](NC(=O)[C@H](CCCNC(=N)N)NC(=O)[C@H](CCCCN)NC(=O)[C@H](C)NC(=O)[C@H](Cc1ccccc1)NC(=O)[C@H](CCC(=O)O)NC(=O)[C@H](CCC(=O)O)NC(=O)[C@H](CC(C)C)NC(=O)[C@@H](N)CO)C(C)C)C(C)C)C(C)C)[C@@H](C)CC)C(=O)N[C@@H](CO)C(=O)N[C@@H](CCC(=O)O)C(=O)N[C@@H](CCCNC(=N)N)C(=O)N[C@H](C(=O)N[C@H](C(=O)N[C@@H](CCC(=O)O)C(=O)N[C@H](C(=O)N[C@H](C(=O)N[C@@H](CC(C)C)C(=O)N[C@@H](CCCNC(=N)N)C(=O)N[C@@H](Cc1c[nH]cn1)C(=O)N[C@@H](C)C(=O)N[C@@H](C)C(=O)N[C@@H](CCC(N)=O)C(=O)N[C@H](C(=O)N[C@@H](CC(C)C)C(=O)N[C@@H](CCCCN)C(=O)O)[C@@H](C)O)C(C)C)[C@@H](C)CC)[C@@H](C)CC)[C@@H](C)CC,,"CD-1 ICR mouse, male, plasma","intravenous, 1 mg/kg",Vss,1.31 L/kg
CC[C@H](C)[C@H](NC(=O)[C@H](C)NC(=O)[C@H](CCCCN)NC(=O)[C@H](CC(C)C)NC(=O)[C@@H](N)Cc1ccccc1)C(=O)N[C@@H](CCCCN)C(=O)N[C@@H](CCCCN)C(=O)N[C@@H](Cc1ccccc1)C(=O)NCC(=O)N[C@@H](CCCCN)C(=O)N[C@@H](CCC(=O)O)C(=O)N[C@@H](Cc1ccccc1)C(=O)N[C@@H](CCCCN)C(=O)N[C@@H](CCCCN)C(=O)N[C@H](C(=O)NCC(=O)N[C@@H](C)C(=O)N[C@@H](CCCCN)C(=O)N[C@@H](CC(C)C)C(=O)N[C@@H](CCCCN)C(=O)O)[C@@H](C)CC,,human red blood cells,"64 mg/L, 1 h",hemolysis,1.12%
O=C1NC2(CC2)COc2ncc(F)cc2[C@H]2COCCN2c2ccn3ncc1c3n2,,"Sprague-Dawley rat, female, liver","oral, 2.5 mg/kg/day, 4 weeks dosing, end of recovery",organ-to-body weight ratio,2.86 ± 0.242%
CC(C)=CCC/C(C)=C/CCn1cc(CC(C)(P(=O)(O)O)P(=O)(O)O)nn1,PAMPA,phosphate buffer,"5 µg/mL, 5 h, room temperature",Papp,0.208 ± 0.013 ×10⁻⁶ cm/s
Cc1cc(-c2ccc3ccccc3c2)nnc1NCCN1CCN(C)CC1,metabolic stability,"rat, liver microsomes",20 min,compound remaining,88.5%
CC(C)C[C@H](NC(=O)[C@H](Cc1ccc(O)cc1)NC(=O)[C@H](C)NC(=O)[C@H](CC(N)=O)NC(=O)[C@H](CC(C)C)NC(=O)[C@H](C)NC(=O)[C@@H](NC(=O)[C@H](CCCCN)NC(=O)CNC(=O)[C@@H](NC(=O)[C@H](CCCCN)NC(=O)[C@H](CCCCN)NC(=O)CNC(=O)[C@@H](NC(=O)[C@H](Cc1c[nH]cn1)NC(=O)[C@@H](NC(=O)[C@H](C)NC(=O)[C@H](CCCCN)NC(=O)[C@H](CCCCN)NC(=O)[C@H](Cc1ccccc1)NC(=O)[C@H](Cc1c[nH]c2ccccc12)NC(=O)[C@H](CCCCN)NC(=O)[C@H](CCCCN)NC(=O)[C@H](CC(C)C)NC(=O)CN)C(C)C)C(C)C)C(C)C)C(C)C)C(N)=O,,"zebrafish embryos 28 hpf, E3 medium",1 h,acute toxic concentration,5 µM
CC(C)[C@@H]1NC(=O)CNC(=O)[C@H](CC(N)=O)NC(=O)[C@H](CCCNC(=N)N)NC(=O)[C@H](Cc2ccc(O)cc2)NC(=O)[C@H](C(C)C)NC(=O)[C@@H](NC(=O)[C@@H](NC(=O)[C@H](CC(N)=O)NC(=O)[C@H](Cc2c[nH]c3ccccc23)NC(=O)[C@H](C)NC(=O)[C@H](Cc2ccccc2)NC(=O)CNC(=O)[C@H](CCCCN)NC(=O)[C@H](Cc2ccccc2)NC(=O)[C@H](Cc2ccccc2)NC(=O)[C@H](CCCCN)NC(=O)OCC2c3ccccc3-c3ccccc32)C(C)C)CSSC[C@@H](C(=O)N[C@@H](Cc2c[nH]cn2)C(=O)N[C@@H](CCCNC(=N)N)C(=O)N[C@@H](CCCNC(=N)N)C(=O)N[C@@H](C)C(=O)N[C@@H](CC(N)=O)C(N)=O)NC(=O)[C@H](C(C)C)NC(=O)[C@H](CCCNC(=N)N)NC1=O,,"ICR mouse, serum","ip, 10 mg/kg, 3 d dosing, blood day 5",total protein,52.3 ± 0.88 g/L
CC[C@H](C)[C@H](NC(=O)[C@H](CCCCN)NC(=O)CNC(=O)[C@H](CC(C)C)NC(=O)[C@H](Cc1ccccc1)NC(=O)[C@H](CCCCN)NC(=O)[C@H](CO)NC(=O)[C@H](Cc1ccccc1)NC(=O)[C@H](Cc1c[nH]c2ccccc12)NC(=O)[C@H](CCC(N)=O)NC(=O)[C@@H](NC(=O)[C@H](Cc1ccccc1)NC(=O)CCCCCNC(=O)CN1CCN(CC(=O)O)CCN(CC(=O)O)CCN(CC(=O)O)CC1)C(C)C)C(=O)N[C@@H](CCC(=O)O)C(=O)N1CCC[C@H]1C(=O)N[C@H](CC(=O)O)C(=O)N[C@H](C(=O)N[C@@H](CO)C(=O)N[C@@H](CCC(N)=O)C(=O)N[C@H](C(=O)N[C@@H](CCC(N)=O)C(=O)N[C@@H](CC(=O)O)C(=O)N1CCC[C@H]1C(=O)N[C@@H](CC(N)=O)C(=O)N[C@@H](CC(=O)O)C(=O)N[C@@H](CCC(N)=O)C(=O)N[C@@H](Cc1ccc(O)cc1)C(=O)N[C@@H](CCC(=O)O)C(=O)N1CCC[C@H]1C(=O)N[C@@H](Cc1ccccc1)C(=O)O)C(C)C)C(C)C [copper-64 labelled],,"C57BL/6 mice, male, MC-38 tumour-bearing, spleen","2 h, checkpoint inhibitor-treated",tissue uptake,0.43 ± 0.02 %ID/g
